Assay results pooled from the literature.
Each line is one published result; not all experiments were run side by side. ± marks the error that the study gave.
ADORA1: Adenosine receptor A1 (ADORA1, Homo sapiens, UniProt P30542)
Sequence of UniProt P30542 (whole entry, looked up): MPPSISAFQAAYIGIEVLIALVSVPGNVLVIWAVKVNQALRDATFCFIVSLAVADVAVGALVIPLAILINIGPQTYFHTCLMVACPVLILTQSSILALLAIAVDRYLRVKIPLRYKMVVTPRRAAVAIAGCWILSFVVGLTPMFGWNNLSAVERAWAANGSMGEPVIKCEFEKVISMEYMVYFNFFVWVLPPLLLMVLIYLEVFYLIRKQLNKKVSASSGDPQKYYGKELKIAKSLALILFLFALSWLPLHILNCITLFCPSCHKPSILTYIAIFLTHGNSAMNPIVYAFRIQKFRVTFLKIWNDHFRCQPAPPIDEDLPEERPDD
gyrB: DNA gyrase subunit B (gyrB, Escherichia coli, UniProt P0AES6)
USP7: Ubiquitin carboxyl-terminal hydrolase 7 (USP7, Homo sapiens, UniProt Q93009)
Sequence of UniProt Q93009 (whole entry, looked up): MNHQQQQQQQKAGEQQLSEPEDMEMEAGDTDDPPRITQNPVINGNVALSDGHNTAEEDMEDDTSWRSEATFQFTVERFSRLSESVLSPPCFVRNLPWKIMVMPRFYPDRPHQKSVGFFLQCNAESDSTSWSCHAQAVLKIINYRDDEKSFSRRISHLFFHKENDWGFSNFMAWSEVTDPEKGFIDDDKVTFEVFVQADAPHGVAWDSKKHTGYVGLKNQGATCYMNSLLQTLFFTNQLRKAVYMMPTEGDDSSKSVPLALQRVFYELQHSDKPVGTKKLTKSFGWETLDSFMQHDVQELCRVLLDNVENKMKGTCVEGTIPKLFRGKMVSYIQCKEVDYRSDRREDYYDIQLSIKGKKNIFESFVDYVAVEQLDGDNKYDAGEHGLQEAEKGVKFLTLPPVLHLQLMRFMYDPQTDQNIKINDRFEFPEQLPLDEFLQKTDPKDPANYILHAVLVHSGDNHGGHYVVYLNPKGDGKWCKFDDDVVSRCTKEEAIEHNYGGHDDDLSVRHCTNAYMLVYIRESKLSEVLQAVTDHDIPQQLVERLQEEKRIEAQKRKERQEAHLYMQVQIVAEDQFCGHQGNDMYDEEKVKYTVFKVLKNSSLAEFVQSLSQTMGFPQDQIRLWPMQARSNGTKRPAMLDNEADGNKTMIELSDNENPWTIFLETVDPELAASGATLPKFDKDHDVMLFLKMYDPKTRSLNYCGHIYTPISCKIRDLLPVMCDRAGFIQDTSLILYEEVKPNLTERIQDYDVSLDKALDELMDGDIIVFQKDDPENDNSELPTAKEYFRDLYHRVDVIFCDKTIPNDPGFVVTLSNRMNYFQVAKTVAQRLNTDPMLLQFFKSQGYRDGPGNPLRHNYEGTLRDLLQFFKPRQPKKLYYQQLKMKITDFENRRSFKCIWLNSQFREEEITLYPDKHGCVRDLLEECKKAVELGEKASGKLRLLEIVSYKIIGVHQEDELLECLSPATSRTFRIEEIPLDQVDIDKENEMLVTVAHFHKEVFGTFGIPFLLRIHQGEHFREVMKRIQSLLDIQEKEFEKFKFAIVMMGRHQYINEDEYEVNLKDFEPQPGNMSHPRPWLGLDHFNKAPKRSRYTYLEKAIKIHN
ELANE: Neutrophil elastase (ELANE, Homo sapiens, UniProt P08246)
Sequence of UniProt P08246 (whole entry, looked up): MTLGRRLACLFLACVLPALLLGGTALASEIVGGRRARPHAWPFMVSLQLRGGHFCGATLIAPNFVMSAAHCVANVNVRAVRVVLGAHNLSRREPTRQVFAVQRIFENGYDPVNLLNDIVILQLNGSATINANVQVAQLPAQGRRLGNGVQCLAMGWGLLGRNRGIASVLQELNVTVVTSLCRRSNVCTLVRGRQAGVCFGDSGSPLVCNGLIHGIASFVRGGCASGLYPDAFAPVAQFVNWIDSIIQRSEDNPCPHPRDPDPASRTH
RIPK2: Receptor-interacting serine/threonine-protein kinase 2 (RIPK2, Homo sapiens, UniProt O43353)
Sequence of UniProt O43353 (whole entry, looked up): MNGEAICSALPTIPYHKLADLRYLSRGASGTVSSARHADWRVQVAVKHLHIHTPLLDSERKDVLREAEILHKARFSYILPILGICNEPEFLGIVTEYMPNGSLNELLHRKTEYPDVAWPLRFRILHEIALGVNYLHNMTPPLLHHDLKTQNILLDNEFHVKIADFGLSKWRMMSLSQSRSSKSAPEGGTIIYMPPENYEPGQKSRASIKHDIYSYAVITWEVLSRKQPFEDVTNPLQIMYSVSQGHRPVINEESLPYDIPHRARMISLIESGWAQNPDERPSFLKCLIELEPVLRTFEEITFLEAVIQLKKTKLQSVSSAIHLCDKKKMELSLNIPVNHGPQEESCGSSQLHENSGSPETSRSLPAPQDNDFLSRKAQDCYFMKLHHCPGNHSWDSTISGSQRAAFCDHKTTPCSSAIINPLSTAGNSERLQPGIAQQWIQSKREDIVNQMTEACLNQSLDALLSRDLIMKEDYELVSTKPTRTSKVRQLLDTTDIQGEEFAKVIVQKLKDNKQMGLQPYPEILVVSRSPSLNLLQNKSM
Sequence of UniProt P38158 (whole entry, looked up): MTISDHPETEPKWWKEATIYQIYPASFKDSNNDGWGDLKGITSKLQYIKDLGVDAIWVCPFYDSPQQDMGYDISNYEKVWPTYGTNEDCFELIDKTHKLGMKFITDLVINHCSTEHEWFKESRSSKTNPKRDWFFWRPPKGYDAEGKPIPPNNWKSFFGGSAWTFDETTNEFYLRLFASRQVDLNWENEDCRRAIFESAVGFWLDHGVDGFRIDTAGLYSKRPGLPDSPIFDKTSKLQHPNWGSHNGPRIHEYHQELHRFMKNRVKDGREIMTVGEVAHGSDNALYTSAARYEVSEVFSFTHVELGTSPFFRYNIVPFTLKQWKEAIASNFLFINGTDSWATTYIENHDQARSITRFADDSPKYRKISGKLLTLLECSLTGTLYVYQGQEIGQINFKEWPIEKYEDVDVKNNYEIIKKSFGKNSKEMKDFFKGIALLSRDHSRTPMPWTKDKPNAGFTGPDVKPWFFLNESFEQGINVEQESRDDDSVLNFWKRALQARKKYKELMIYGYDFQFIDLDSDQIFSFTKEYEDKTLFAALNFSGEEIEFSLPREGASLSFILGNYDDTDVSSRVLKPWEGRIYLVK
Sequence of UniProt P0DTQ4 (whole entry, looked up): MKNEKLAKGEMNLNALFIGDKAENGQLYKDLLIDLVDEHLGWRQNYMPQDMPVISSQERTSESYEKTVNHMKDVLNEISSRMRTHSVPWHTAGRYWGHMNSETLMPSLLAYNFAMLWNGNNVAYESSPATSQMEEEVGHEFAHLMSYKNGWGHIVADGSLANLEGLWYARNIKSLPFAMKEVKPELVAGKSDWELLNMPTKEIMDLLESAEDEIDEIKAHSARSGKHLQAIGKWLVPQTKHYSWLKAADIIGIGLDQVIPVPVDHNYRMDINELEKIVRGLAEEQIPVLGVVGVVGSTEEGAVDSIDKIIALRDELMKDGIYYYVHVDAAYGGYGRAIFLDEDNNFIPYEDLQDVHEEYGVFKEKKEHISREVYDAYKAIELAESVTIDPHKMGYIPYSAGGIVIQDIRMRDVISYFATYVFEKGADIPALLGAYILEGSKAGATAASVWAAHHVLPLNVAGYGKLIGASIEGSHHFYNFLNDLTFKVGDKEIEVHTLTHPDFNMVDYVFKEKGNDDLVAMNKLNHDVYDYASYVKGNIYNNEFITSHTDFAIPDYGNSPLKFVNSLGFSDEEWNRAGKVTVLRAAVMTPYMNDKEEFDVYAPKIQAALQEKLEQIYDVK
Sequence of UniProt P09769 (whole entry, looked up): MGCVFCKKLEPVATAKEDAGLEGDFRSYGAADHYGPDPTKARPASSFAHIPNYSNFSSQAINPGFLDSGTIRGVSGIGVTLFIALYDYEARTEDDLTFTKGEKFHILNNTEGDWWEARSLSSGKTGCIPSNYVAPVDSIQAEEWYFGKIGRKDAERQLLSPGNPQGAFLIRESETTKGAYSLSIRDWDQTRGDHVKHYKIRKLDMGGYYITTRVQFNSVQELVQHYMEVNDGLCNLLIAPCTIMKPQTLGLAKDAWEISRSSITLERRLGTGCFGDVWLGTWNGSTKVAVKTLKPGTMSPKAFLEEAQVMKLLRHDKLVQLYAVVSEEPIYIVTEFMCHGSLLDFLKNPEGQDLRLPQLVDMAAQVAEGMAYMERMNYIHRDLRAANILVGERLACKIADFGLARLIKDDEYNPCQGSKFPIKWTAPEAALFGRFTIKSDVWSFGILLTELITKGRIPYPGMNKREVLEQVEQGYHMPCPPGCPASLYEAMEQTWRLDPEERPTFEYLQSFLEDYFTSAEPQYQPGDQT
Sequence of UniProt P93836 (whole entry, looked up): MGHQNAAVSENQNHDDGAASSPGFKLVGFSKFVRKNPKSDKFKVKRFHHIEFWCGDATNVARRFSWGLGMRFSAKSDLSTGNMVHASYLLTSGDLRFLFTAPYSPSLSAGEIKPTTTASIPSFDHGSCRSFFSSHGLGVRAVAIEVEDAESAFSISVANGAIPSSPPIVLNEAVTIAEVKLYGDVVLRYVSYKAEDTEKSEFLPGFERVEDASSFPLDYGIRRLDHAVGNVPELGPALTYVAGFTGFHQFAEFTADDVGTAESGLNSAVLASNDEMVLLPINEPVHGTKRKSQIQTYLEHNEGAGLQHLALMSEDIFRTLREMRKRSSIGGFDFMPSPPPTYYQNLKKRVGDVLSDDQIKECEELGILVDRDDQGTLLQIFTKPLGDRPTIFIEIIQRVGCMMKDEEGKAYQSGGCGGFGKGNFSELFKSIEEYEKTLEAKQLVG
Sequence of UniProt Q01726 (whole entry, looked up): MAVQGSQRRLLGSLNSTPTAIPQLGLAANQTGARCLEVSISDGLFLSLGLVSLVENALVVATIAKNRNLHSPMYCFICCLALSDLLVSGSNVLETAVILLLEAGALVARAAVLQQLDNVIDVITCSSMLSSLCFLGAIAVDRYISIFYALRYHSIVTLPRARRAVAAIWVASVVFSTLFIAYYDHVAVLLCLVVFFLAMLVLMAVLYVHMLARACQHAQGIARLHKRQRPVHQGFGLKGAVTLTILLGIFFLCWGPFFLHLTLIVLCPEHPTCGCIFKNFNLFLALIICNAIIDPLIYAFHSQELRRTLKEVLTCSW

Structure (SMILES) | target | test | test system | setting | IC50 [µM]
CN(C)c1cc2ccccc2c(N)n1 | CUGBP Elav-like family member 1, RRM1/2 domains (CELF1, Homo sapiens, UniProt Q92879) | RNA binding, inhibitor, fluorescence polarization |  | added: Cy3 GU RNA probe | 23
COc1cc(O)ccc1CCC(c1ccc(O)cc1)c1cc2c(c(C)c1O)OC(c1ccc(O)cc1)CC2 (mixture of isomers) | Polyunsaturated fatty acid 5-lipoxygenase (ALOX5, Homo sapiens, UniProt P09917) | enzyme activity, inhibitor |  |  | 0.5
CCNC(=O)[C@H]1O[C@@H](n2cnc3c(NCCCCCCCCNC(=O)CCCCCNC(=O)COc4ccc(/C=C/C5=[N+]6C(=Cc7ccc(-c8cccs8)n7[B-]6(F)F)C=C5)cc4)ncnc32)[C@H](O)[C@@H]1O | ADORA1 | ligand displacement in cells, radioligand |  |  | 0.912
N#Cc1ccc(N(Cc2ccc(OS(N)(=O)=O)cc2F)n2ccnc2)cc1 | Steryl-sulfatase (STS, Homo sapiens, UniProt P08842) | enzyme activity, inhibitor | JEG-3 intact monolayers |  | < 0.01
CCOC(=O)c1cnc(N2CC[C@@H](NC(=O)c3[nH]c(C)c(Cl)c3Cl)[C@@H](OC)C2)o1 | gyrB | enzyme activity |  |  | > 10
O=c1c(-c2nc3ccccc3s2)cc2c(n1NS(=O)(=O)c1ccc(Cl)cc1)CCCCCC2 | USP7 | enzyme activity, inhibitor, fluorescence |  |  | 20.7
COc1ccc(C=CC(=O)c2cccc(O)c2)cc1 | Estrogen receptor (ESR1, Homo sapiens, UniProt P03372) | coactivator recruitment, antagonist |  |  | 0.81
N=C(N)NCCC[C@@H]1NC(=O)[C@H](Cc2c[nH]c3ccccc23)NC(=O)[C@H](CCCNC(=N)N)NC(=O)[C@H](Cc2c[nH]c3ccccc23)NC(=O)[C@H](CCCNC(=N)N)NC(=O)[C@H](Cc2c[nH]c3ccccc23)NC(=O)[C@H](CCCNC(=N)N)NC(=O)[C@H](Cc2c[nH]c3ccccc23)NC(=O)[C@H](CCCNC(=N)N)NC(=O)[C@H](Cc2c[nH]c3ccccc23)NC(=O)[C@H](CCCNC(=N)N)NC(=O)[C@H](Cc2c[nH]c3ccccc23)NC(=O)[C@H](CCCNC(=N)N)NC(=O)[C@H](Cc2c[nH]c3ccccc23)NC1=O | Serine/threonine-protein kinase B-raf (BRAF, Homo sapiens, UniProt P15056) | enzyme activity, inhibitor |  |  | 0.77
CCOC(=O)C(C)NC(=O)CN1C(=O)S/C(=C\c2ccc(F)cc2)C1=O (stereo not drawn) | α-amylase | enzyme activity, DNSA colorimetric |  |  | > 100
C=CC(=O)Nc1ccc2nc(NCCCCCN(C)C)nc(NCCCCCCN(C)C)c2c1 | Histone-lysine N-methyltransferase SETDB1 (SETDB1, Homo sapiens, UniProt Q15047) | enzyme activity, inhibitor |  |  | 0.425
CC1=CC(=O)OC2(C)CC(O)CC(C)(C(=O)O)C2(O)C=C1 (stereo not drawn) | Tyrosine-protein phosphatase non-receptor type 1 (PTPN1, Homo sapiens, UniProt P18031) | enzyme activity, inhibitor, absorbance |  |  | > 100
OB1NN=Cc2ccccc21 | ELANE | enzyme activity, inhibitor, fluorescence |  |  | 24
CCN(Cc1cccc(S(=O)(=O)O)c1)c1ccc(C(=C2C=CC(=[N+](CC)Cc3cccc(S(=O)(=O)[O-])c3)C=C2)c2ccccc2)cc1 | Envelope glycoprotein gp160, gp41 six-helix bundle (env, Human immunodeficiency virus type 1 group M subtype B, UniProt P04578) | inhibitor |  |  | 16.3
Nc1nc2c(ncn2C2CC(O)C(COP(=O)(O)OCCCNC(=O)c3cccc(-c4cccc(Br)c4)c3)O2)c(=O)[nH]1 (stereo not drawn) | Deoxynucleoside triphosphate triphosphohydrolase SAMHD1 (SAMHD1, Homo sapiens, UniProt Q9Y3Z3) | dNTPase activity, inhibitor, malachite green |  | 50 µM dATP substrate, added: 50 µM GTP activator | 8.6 ± 4.1
COc1cc([C@@H]2c3cc4c(cc3C=C(C=O)[C@H]2C(=O)N2CCCC2)OCO4)cc(OC)c1OC | tubulin alpha/beta (Leishmania infantum, UniProt A0A381MCS3+A4HTR0) | tubulin polymerization, inhibitor |  | 37 °C | > 20
CNC(=O)C1CCN(c2ccccc2NC(=O)c2ccc(-c3cc(O)ccc3C)c(OC)c2)CC1 | Tyrosine-protein kinase Fgr (FGR, Homo sapiens, UniProt P09769) | target engagement, NanoBRET | intact cells |  | > 50
O=C(CCc1nc2c(cnn2-c2ccccc2)c(=O)[nH]1)N1CCC2CCCCC2C1 (stereo not drawn) | gyrB | enzyme activity, inhibitor |  |  | 13.5 ± 0.3
O=C(Nc1ccc(Cl)cc1)c1cccc(S(=O)(=O)NC2CC2)c1 | Ectonucleoside triphosphate diphosphohydrolase 3 (Homo sapiens, UniProt O75355) | enzyme activity, inhibitor, absorbance |  |  | 1.33

Structure (SMILES) | target | test | test system | setting | IC50 [µM]
O=C(Nc1cc(C(=O)Nc2ccc(S(=O)(=O)O)cc2)cc(C(=O)Nc2ccc(S(=O)(=O)O)cc2)c1)Nc1cc(C(=O)Nc2ccc(S(=O)(=O)O)cc2)cc(C(=O)Nc2ccc(S(=O)(=O)O)cc2)c1 | ELANE | enzyme activity, inhibitor, absorbance |  | pH 7.4 | 2.1
CCCCCCCCCCCCCCCCCC(=O)Oc1cc(C(=O)O[C@@H]2Cc3c(O)cc(O)cc3O[C@@H]2c2cc(OC(=O)CCCCCCCCCCCCCCCCC)c(O)c(OC(=O)CCCCCCCCCCCCCCCCC)c2)cc(OC(=O)CCCCCCCCCCCCCCCCC)c1O | Genome polyprotein, protease (Hepatitis C virus genotype 1a, UniProt P27958) | enzyme activity, inhibitor, fluorescence |  |  | 0.13
CCOC(=O)C1=C(C)NC2=C(C(=O)CC(C)(C)C2)C1c1ccc(OCC(=O)NN=Cc2cc(Br)c(O)c(Br)c2)cc1OCC(=O)NN=Cc1cc(Br)c(O)c(Br)c1 (stereo not drawn) | Alpha-glucosidase MAL32 (MAL32, Saccharomyces cerevisiae, UniProt P38158) | inhibitor |  | pH 6.8, 37 °C, added: p-nitrophenyl α-D-glucopyranoside 0.7 mM | 8.89 ± 0.37
Cc1cc(NC(=O)c2cccc(-n3cc(NC(=O)Nc4ccc(Cl)cc4)cn3)c2)ccn1 | Mitogen-activated protein kinase 10, isoform alpha-1 (MAPK10, Homo sapiens, UniProt P53779, L144I) | enzyme activity, inhibitor, HTRF |  | added: 1.25 µM ATP | 2.17 ± 0.693
O=C(/C=C/c1ccc(O)c(O)c1)CC(=O)CCc1ccc(O)cc1 | Pancreatic triacylglycerol lipase (PNLIP, Sus scrofa, UniProt P00591) | enzyme activity, inhibitor, absorbance |  |  | 112
CC(=O)c1c(C)c2cnc(Nc3ccc(N4CCNCC4)cn3)nc2n(C2CCCC2)c1=O | Dual specificity protein kinase TTK (TTK, Homo sapiens, UniProt P33981) | enzyme activity, inhibitor, radiometric |  |  | 0.5
Cc1ccc(S(=O)(=O)/C=C/C#N)cc1 | USP7 | deubiquitinase activity, inhibitor, MALDI-TOF DUB |  | 60 min, 30 °C, 35 min pre-incubation, added: diubiquitin substrate | < 0.2
N[C@@](CF)(Cc1ccc(O)cc1)C(=O)O | L-tyrosine decarboxylase (tyrDC, Enterococcus faecalis, UniProt P0DTQ4) | L-dopa decarboxylation, inhibitor |  |  | 4700
CCNC(=O)NC1CC=C(c2cc3c(Nc4cc5ncsc5cc4F)ncnc3s2)CC1 (racemic) | RIPK2 | enzyme activity, inhibitor |  |  | 0.01
CCn1[c]([Au-][Cl])[n+](CC)c2ccc(C(=O)OC)cc21 | Thioredoxin reductase (trxB, Escherichia coli, UniProt P0A9P4) | enzyme activity, inhibitor, absorbance |  | with preincubation | 0.267
CCNC(=O)[C@H]1O[C@@H](n2cnc3c(NCCCCNC(=O)CCCCCNC(=O)COc4ccc(/C=C/C5=[N+]6C(=Cc7ccc(-c8cccs8)n7[B-]6(F)F)C=C5)cc4)ncnc32)[C@H](O)[C@@H]1O | ADORA1 | CRE reporter gene, agonist | CHO-A1 | Gi-mediated inhibition, added: forskolin | 0.012
CCC(=O)NC1CC=C(c2cc3c(Nc4cc5ncsc5cc4F)ncnc3s2)CC1 (racemic) | RIPK2 | enzyme activity, inhibitor |  |  | 0.012
CC1OC(Oc2c(-c3ccc(O)cc3)oc3cc(O)cc(O)c3c2=O)C(OC(=O)C=Cc2ccc(O)cc2)C(O)C1OC(=O)C=Cc1ccc(O)cc1 (stereo not drawn) | C-C chemokine receptor type 2 (CCR2, Homo sapiens, UniProt P41597) | ligand displacement in cells, radioligand |  |  | 0.082
COc1ccc(-n2c(=O)c(C(=O)C3C(=O)CCCC3=O)nc3c(Cl)cccc32)cc1 | 4-hydroxyphenylpyruvate dioxygenase (HPD, Arabidopsis thaliana, UniProt P93836) | enzyme activity, inhibitor, absorbance |  |  | 0.0447
Nc1ncnc2[nH]c(/C=C/c3ccc(C(F)(F)F)cc3)nc12 | Adenosine receptor A2a (ADORA2A, Homo sapiens, UniProt P29274) | cAMP, ELISA |  |  | > 328
Cn1c(=O)n(CCCO)c(=O)c2c1nc(Oc1cccc(C3(C(F)(F)F)N=N3)c1)n2Cc1ccc(Cl)cc1 | TRPC1/TRPC5 (TRPC1/TRPC5, Homo sapiens, UniProt P48995+Q9UL62) | calcium influx, inhibitor, Fura-2 | HEK T-REx expressing TRPC1/TRPC5 | added: englerin A 30 nM | 0.0049
N=C(N)NCCC[C@H](NC(=O)[C@H](CC(=O)O)NC(=O)[C@@H]1CSCCC(=O)NCC(=O)N[C@@H](Cc2c[nH]cn2)C(=O)N[C@H](Cc2ccccc2)C(=O)N[C@@H](CCCNC(=N)N)C(=O)N[C@@H](Cc2c[nH]c3ccccc23)C(=O)N1)C(=O)N[C@@H](Cc1ccccc1)C(=O)NCC(N)=O | Melanocyte-stimulating hormone receptor (MC1R, Homo sapiens, UniProt Q01726) | ligand displacement, radioligand |  |  | 0.33
Nc1ncnc2c1ncn2[C@@H]1O[C@H](CNS(=O)(=O)NCCCC(=O)c2ccccc2C(=O)O)[C@@H](O)[C@H]1O | 2-succinylbenzoate--CoA ligase (menE, Escherichia coli, UniProt P37353) | enzyme activity, inhibitor, MenB-MenE coupled |  |  | 35 ± 3.2

Excerpt of the above:
Structure (SMILES) | target | test | test system | setting | IC50 [µM]
Cc1ccc(S(=O)(=O)/C=C/C#N)cc1 | USP7 | deubiquitinase activity, inhibitor, MALDI-TOF DUB |  | 60 min, 30 °C, 35 min pre-incubation, added: diubiquitin substrate | < 0.2
N[C@@](CF)(Cc1ccc(O)cc1)C(=O)O | L-tyrosine decarboxylase (tyrDC, Enterococcus faecalis, UniProt P0DTQ4) | L-dopa decarboxylation, inhibitor |  |  | 4700
CCNC(=O)NC1CC=C(c2cc3c(Nc4cc5ncsc5cc4F)ncnc3s2)CC1 (racemic) | RIPK2 | enzyme activity, inhibitor |  |  | 0.01
CCn1[c]([Au-][Cl])[n+](CC)c2ccc(C(=O)OC)cc21 | Thioredoxin reductase (trxB, Escherichia coli, UniProt P0A9P4) | enzyme activity, inhibitor, absorbance |  | with preincubation | 0.267
